Assay results pooled from the literature.
A part holds a random share of what one study measured.

Block 1 — method: protein-binding microarray; molecule type: double-stranded DNA, one strand shown; matrix: in vitro; tested at: 2540 nM top; setting: 60-bp whole probe; added: salmon DNA 0.4 mg/ml; relative to: random background probes; reading: higher = stronger binding; all sequences stand within: GCCTAGCAC … GTCTTGATTCGCTTGACGCTGCTG
Target: Interferon regulatory factor 3, full length, phosphomimetic (IRF3, Homo sapiens, UniProt Q14653, residues 1-427, S386D/S396D/S398D/S402D/T404D/S405D)
Residues (chain): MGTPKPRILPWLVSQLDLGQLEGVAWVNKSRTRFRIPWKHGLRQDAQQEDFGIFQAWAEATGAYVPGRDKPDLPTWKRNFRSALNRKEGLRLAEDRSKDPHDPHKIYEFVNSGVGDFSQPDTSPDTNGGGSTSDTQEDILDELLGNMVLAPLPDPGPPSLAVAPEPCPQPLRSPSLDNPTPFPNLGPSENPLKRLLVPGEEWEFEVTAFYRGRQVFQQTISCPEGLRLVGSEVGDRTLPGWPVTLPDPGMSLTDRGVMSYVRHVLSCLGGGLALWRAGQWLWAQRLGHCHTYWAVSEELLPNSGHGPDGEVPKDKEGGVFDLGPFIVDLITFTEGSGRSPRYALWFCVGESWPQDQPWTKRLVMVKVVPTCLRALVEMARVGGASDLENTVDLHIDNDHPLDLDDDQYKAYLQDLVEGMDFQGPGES
Oligonucleotide	fitted relative affinity
AACGGACTGGGGTATCGGGACGTGCTA	-0.567 z-score
TTGGGTTTCGGGTATCGGTTAGTGCTA	3.42 z-score
GACGAACTCGGGTTTCGAGACGTGCTA	0.594 z-score
GACGGTTTGGGTATCGGGACGTGCTAG	0.733 z-score
TTAGGTTTCGGTTCCGTTTAGTGCTAG	10.6 z-score
TCTCTTTTGGCTTTCCTTTAGTGCTAG	1.87 z-score
TTAGGTATCCTACTCCTTTAGTGCTAG	4.23 z-score
TAATGGATATATATCATTTAGTGCTAG	0.675 z-score
GACGAACTGAGTCACGAGACGTGCTAG	-0.132 z-score
TTAGAACTGGAGTATCGATTAGTGCTA	-0.273 z-score
TTAGAACTGGGGACTGGGTTAGTGCTA	-0.966 z-score
TCAAACTTGTGTTTGTCACTGTGCTAG	-0.262 z-score
TTAGGACTGGGTTTCGGCTAGTGCTAG	0.154 z-score
TTAGGTCTCCTTCTCCCTTAGTGCTAG	4.13 z-score
GACGGACTGGGTTTAGGGACGTGCTAG	-0.724 z-score
GACGGTTTCCTCTCCCTGACGTGCTAG	3.87 z-score
TTAGGTATAGGTTTCGGTTAGTGCTAG	4.33 z-score
TTAGGTATCGAATATCGGTTAGTGCTA	0.971 z-score
GACGGACTGGACACTGGGTACGTGCTA	-0.657 z-score
TCATCCATGTGTTTAAAACTGTGCTAG	0.139 z-score
GACGGACTGATTATCCTGACGTGCTAG	0.343 z-score
GACTATATCAGTTTCGAGACGTGCTAG	3.24 z-score
GACGGTGTCGGGACTGGGGACGTGCTA	0.714 z-score
TTAGGAATGGGGTTTCGGTTAGTGCTA	2.56 z-score
GTCGGTATCGACTTTCGGGACGTGCTA	2.25 z-score

Block 2 — method: protein-binding microarray; molecule type: double-stranded DNA, one strand shown; matrix: in vitro; tested at: 0.8 µM; setting: whole 60-bp probe, no competitor; reading: higher = stronger binding
Target: Centromere-binding protein 1, full length, N-terminal tag (CBF1, Saccharomyces cerevisiae, UniProt P17106, residues 1-351)
Chain of UniProt P17106 (whole entry, looked up): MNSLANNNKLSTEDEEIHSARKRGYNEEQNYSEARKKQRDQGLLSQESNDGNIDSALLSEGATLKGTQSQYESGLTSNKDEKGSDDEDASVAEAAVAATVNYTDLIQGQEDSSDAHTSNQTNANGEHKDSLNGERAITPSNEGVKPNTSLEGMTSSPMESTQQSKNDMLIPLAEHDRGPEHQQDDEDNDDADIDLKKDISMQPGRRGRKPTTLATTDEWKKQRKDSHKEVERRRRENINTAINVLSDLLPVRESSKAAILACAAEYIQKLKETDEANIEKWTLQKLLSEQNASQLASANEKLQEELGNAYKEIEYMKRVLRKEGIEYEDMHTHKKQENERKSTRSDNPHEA
Oligonucleotide	fluorescence intensity [a.u.]
CCTAACTACTATACAGGTGAGTGATAGCTTCGTACAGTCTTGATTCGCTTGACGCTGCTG	553
TGTACGAAGCTATAGCACGTGTTTATAGTAGTTAGGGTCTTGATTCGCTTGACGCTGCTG	10900
CTAGAGCAACAAATACATGTGAGCTTAGAAAGATTCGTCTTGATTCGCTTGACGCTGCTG	666
GAACTTGTACCAGTGAACGTGTGTTTATGCAAATAGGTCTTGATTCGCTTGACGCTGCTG	596
GAAGAATCTTCTCGTCACGGAAGACCGTGCATTTAGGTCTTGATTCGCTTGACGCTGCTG	535
TGTACGAAGCTATTGCACGTAGATATAGTAGTTAGGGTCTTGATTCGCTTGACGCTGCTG	547
CTAATGTCTTGCTCACCTGCAATAGCCCGCGTATTCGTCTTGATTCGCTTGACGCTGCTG	531
GAAAAGGTCCAACATTCTCACATGAGGAATACATAGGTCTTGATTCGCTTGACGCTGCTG	523
GAAAATTTTCGACATCATGCCTTCCGAATAAATTAGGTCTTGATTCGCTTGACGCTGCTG	613
CTATGTTGGAAATTACAGGAGATGAGTTGTAAATTCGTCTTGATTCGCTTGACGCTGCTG	522
GAAAAAAAGAAACGTGGTGGTACTTCGCACCCATAGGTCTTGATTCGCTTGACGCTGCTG	792
GAAAAAAAAAAAAGATGCATGATGTATTTGGTATAGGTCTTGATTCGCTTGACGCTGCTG	546
GAATCAGTTCAAGTTCAGCTGATCTAAGTAGCTTAGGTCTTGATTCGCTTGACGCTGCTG	819
CTATCGGAAGGTATTTAGGTGACCTTGCGGCTTTTCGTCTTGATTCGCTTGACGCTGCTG	500
GAATATTCATATTGACACGTAACGCAAAAGAACTAGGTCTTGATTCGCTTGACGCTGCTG	532
GAAATTACTTTACACCACCTTATAACCACAAACTAGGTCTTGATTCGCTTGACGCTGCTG	600
CCTAACTACTATAGTGACATAATATAGCTTCGTACAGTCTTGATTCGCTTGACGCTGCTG	514
CTAAATAGGCTTTCTCTCGTGCTCGACCCCTAATTCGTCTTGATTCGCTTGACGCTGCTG	535
GAATACATCCGTACACATGTGACGTTCGTTCAATAGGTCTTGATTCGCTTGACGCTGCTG	2540
CTAGCGTCTTGATACCACGTCTTCCAGTTATGGTTCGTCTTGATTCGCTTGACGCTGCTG	542
GAATTATATGTGCACCACGCATTTATCTAACCATAGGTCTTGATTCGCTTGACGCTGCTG	532
TGTACGAAGCTATCCAATGACCATATAGTAGTTAGGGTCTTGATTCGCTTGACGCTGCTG	561
CTAACACTAATCATTCTGATGATGAACTCCCTGTTCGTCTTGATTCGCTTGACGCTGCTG	501
CTAGTAAACGGAGAAGACGTGGTAGGACTCGCATTCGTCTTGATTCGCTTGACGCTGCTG	486
CCTAACTACTATAAATAGGTGGTATAGCTTCGTACAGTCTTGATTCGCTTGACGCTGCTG	534

Block 3 — method: RNA Bind-n-Seq; molecule type: RNA; matrix: in vitro; tested at: 365 nM; relative to: no-protein control; reading: higher = stronger binding
Target: RNA binding protein fox-1 homolog 2, RRM domain, GST-SBP tag (RBFOX2, Homo sapiens, UniProt O43251-10, residues 100-194)
Setting: natural RNA segment, single round, ends assumed
Construct (chain): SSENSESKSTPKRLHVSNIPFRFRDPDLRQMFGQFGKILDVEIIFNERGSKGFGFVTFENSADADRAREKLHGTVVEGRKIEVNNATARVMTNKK
Oligonucleotide	RBNS enrichment (R)
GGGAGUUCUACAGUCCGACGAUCCUUUGUCUCAUCCUUCAUUCUGAAUAAGAUGGCAGUGUUCUCCUCUGGGGCCUGAUCCACCUCUACACCAGCCCAGGAAGCCCCAUCUGUGCCUGCCCUCAGGUGGUCCAUGGAAUUCUCGGGUGCCAA	0.347
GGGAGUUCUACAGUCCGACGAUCUGAUCUGUUGUAAUAUCAGUUACAGUGGCAGUAUUGACAAUAAGAAACAGUUUAACAGAAAAAUGAAAUUUAAGCACAAAAAAUUUAAGAGAUUUUAUGUUUAAAAUGGCUGGAAUUCUCGGGUGCCAA	0.57
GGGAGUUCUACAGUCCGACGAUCUGUAGAACAUCCGCCAUGCCGUCCCAGCUGGCGGAGGGGGAGCUGCCCACCUAGCUGGGUUUGGACCUGGAGUGCAGUGGCGUGAACCCUGGUCAGCACAGUCCCCAGCGUGGAAUUCUCGGGUGCCAA	0.372
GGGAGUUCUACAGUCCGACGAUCAAUUGAGCUCACACUAUAUAAUCUUUAUUGUCCUAUCCUGAUGUAUAAUACAGCAGGUAUAAUUACACCAAGCGCUAUAGUUAUAAAUAUGGCAUGAAGUGAACUAUGGCUGGAAUUCUCGGGUGCCAA	0.428
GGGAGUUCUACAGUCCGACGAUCUCUAGUGUAUUUGAAUAUUUUAGAGAAAGCUUUAUCAUUUUUUAAGAUGCCAAGAUGCUGCCUACGUUUGCAAAAGUUGUCUAAGAAUUCACCAUGAGCUAUAUUUUCUUUGGAAUUCUCGGGUGCCAA	0.554
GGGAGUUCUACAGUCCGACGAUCAAAUGAAUAUUUGAUCUCUGAUUAAUUUUUGAGACUUCUAAAUCUCUUCUUGUUUUAAGUUUCUUGGACUUCUGACAAACUUCCCUGGAGAAGUGUUCAUUUUUGUUUUCUGGAAUUCUCGGGUGCCAA	0.896
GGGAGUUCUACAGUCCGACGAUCAGGGGCAUCGGGCCAGGGAAAACCUCGGAUUAGCAAGCAAUAAAAACAUGACCUCACUCUUCCUCAAAGGAGCCCCUGGUCUUCCCUGUGUGACUCAGUUCUUUCCAUCUUGGAAUUCUCGGGUGCCAA	0.339
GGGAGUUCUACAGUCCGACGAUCUGCACCAAGGGCACAAGAGUGGCAGUCCAGAUCUGCCACUUGUUUUAAUAAAGCCUUCUCUCUCACCGCUAUCAAUGUCUGUACCCUCUGGGCAUGGCUAUGUGUGAAGUUGGAAUUCUCGGGUGCCAA	0.56
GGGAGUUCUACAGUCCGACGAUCAUUCCUCAUCUCAAGGCCACCAGUCCCCAGUUAUCACCCUUGGAAAUCCUCUGUUUAGCUUAGUUGCACAAAAGGUAGUAUGUCCAGUGGCUAGAGGUGGGGUGGGAAGAUGGAAUUCUCGGGUGCCAA	0.504
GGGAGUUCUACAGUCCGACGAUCAACUUAAAGGAUAAUAAAAUUUUUAAAGAAAAGAUAUUCUAAUGUACUCUCAAUAAUUCUACAGAAAUAAAACUGUAAAGUGCAAUGUGAAAUCAAAGAUUAUAGUCAUUUGGAAUUCUCGGGUGCCAA	0.574
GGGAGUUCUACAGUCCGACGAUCACAUUUGCAAGUCAGGGGCAUUUUCCUUGACCCUUGACUGAUGCUAUGCGGAGACUGAUACAUUUUCUUAAUGGACAAUGUUCAAGCCAGGUACCCAUGCUUGAUCUGUCUGGAAUUCUCGGGUGCCAA	0.217
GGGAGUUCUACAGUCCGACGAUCUAUAGUACUUGAAAUUCUUACCAGAAAAUUACUUUGGAGUUUUGAAGCCUUUAUUAAUACUACUUUUAAAGAAGCAGUUGUUUUAUUGUCAAUGUUUUUUUUCCCCCAAGUGGAAUUCUCGGGUGCCAA	0.599

Block 4 — method: universal PBM; molecule type: double-stranded DNA, one strand shown; matrix: in vitro; tested at: 600 nM; reading: higher = stronger binding
Target: Sal-like protein 4, full length isoform A (SALL4, Homo sapiens, UniProt Q9UJQ4, residues 1-1053)
Chain of UniProt Q9UJQ4 (whole entry, looked up): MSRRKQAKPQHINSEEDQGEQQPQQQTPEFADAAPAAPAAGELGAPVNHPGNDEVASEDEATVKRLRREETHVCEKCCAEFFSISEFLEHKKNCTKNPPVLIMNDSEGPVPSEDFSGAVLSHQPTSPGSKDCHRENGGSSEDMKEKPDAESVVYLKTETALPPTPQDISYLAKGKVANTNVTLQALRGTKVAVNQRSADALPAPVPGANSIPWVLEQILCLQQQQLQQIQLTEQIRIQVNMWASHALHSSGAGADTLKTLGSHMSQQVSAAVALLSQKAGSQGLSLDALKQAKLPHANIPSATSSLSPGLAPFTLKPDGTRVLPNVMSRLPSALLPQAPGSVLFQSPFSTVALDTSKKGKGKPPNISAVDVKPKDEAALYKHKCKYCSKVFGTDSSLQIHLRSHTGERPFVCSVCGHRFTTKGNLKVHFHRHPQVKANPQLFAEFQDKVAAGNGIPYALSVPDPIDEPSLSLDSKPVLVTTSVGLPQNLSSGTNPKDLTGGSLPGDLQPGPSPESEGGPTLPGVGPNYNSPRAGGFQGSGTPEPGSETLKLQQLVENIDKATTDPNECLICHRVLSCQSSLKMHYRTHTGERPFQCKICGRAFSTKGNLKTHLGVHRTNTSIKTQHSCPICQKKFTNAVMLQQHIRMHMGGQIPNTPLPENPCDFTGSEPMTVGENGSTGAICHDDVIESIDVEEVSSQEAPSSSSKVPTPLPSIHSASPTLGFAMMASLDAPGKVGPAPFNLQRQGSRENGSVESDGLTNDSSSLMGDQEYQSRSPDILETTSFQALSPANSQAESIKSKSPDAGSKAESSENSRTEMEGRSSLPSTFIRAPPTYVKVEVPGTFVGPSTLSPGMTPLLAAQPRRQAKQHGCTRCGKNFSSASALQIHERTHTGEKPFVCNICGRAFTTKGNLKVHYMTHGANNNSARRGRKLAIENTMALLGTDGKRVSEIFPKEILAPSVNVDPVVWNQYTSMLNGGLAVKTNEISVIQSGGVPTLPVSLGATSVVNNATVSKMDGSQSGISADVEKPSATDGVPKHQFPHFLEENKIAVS
Setting: 8-mer, flanks averaged, mean of replicates
Oligonucleotide	E-score
TACGGATA	0.207
CATGCCGC	-0.087
GTTGTGGA	0.0385
GGGCACAC	-0.294
CTGGATCC	-0.165
GGGCTGAA	-0.239
GCGTTGCC	-0.27
CATTCGAA	0.114
GAGCCGTA	-0.0357
GATCCTCC	-0.221
CTTAGGCA	-0.129
TACGAGGA	-0.0265
AAGGACAC	-0.0297
TAACTTGA	0.209
CGACCTCG	-0.168
AAGGGAAG	0.161
ATGTCAGA	0.162
CAGAGTAG	-0.0612
AGCAGTCG	-0.17
CGAATACC	-0.182
AGGCGAAG	-0.116
CTCTCCCA	-0.0731
ACATCGCG	-0.27
CCCTCGTC	-0.241

For quick reference, copied from above (block 2):
Oligonucleotide	fluorescence intensity [a.u.]
CCTAACTACTATAGTGACATAATATAGCTTCGTACAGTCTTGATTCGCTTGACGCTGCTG	514
TGTACGAAGCTATAGCACGTGTTTATAGTAGTTAGGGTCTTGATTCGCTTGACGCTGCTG	10900
GAAAATTTTCGACATCATGCCTTCCGAATAAATTAGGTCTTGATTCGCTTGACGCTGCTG	613
GAATACATCCGTACACATGTGACGTTCGTTCAATAGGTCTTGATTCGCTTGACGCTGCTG	2540
GAAAAAAAAAAAAGATGCATGATGTATTTGGTATAGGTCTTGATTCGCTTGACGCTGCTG	546
CTAATGTCTTGCTCACCTGCAATAGCCCGCGTATTCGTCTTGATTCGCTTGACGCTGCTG	531
GAAGAATCTTCTCGTCACGGAAGACCGTGCATTTAGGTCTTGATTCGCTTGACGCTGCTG	535
CCTAACTACTATAAATAGGTGGTATAGCTTCGTACAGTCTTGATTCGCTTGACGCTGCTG	534
GAATTATATGTGCACCACGCATTTATCTAACCATAGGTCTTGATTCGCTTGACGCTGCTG	532
CTAAATAGGCTTTCTCTCGTGCTCGACCCCTAATTCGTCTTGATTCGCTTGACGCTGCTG	535
